Results from different studies.
Lines come from different studies, so protocols differ. “And” joins repeats or separate records; there may be more than shown. ± marks the error that the study gave. Ends that are not written are not given here. No end group written: not given here. * marks the point of attachment. *: point of attachment.
IKBKG 2-419 C11A/C76A/C95A/C131A/C167A: IKBKG 2-419 C11A/C76A/C95A/C131A/C167A (Homo sapiens, UniProt Q9Y6K9)
B1: NUP153 895-1475 (Homo sapiens, UniProt P49790); sequence looked up; chain SNSAASSSFKFGVSSSSSGPSQTLTSTGNFKFGDQGGFKIGVSSDSGSINPMSEGFKFSKPIGDFKFGVSSESKPEEVKKDSKNDNFKFGLSSGLSNPVSLTPFQFGVSNLGQEEKKEELPKSSSAGFSFGTGVINSTPAPANTIVTSENKSSFNLGTIETKSASVAPFTCKTSEAKKEEMPATKGGFSFGNVEPASLPSASVFVLGRTEEKQQEPVTSTSLVFGKKADNEEPKCQPVFSFGNSEQTKDENSSKSTFSFSMTKPSEKESEQPAKATFAFGAQTSTTADQGAAKPVFSFLNNSSSSSSTPATSAGGGIFGSSTSSSNPPVATFVFGQSSNPVSSSAFGNTAESSTSQSLLFSQDSKLATTSSTGTAVTPFVFGPGASSNNTTTSGFGFGATTTSSSAGSSFVFGTGPSAPSASPAFGANQTPTFGQSQGASQPNPPGFGSISSSTALFPTGSQPAPPTFGTVSSSSQPPVFGQQPSQSAFGSGTTPNSSSAFQFGSSTTNFNFTNNSPSGVFTFGANSSTPAASAQPSGSGGFPFNQSPAAFTVGSNGKNVFSSSGTSFSGRKIKTAVRRRK
B2: IGFL3 24-125 (Homo sapiens, UniProt Q6UXB1); chain GTTDAPVGSGLWLCQPTPRCGNKIYNPSEQCCYDDAILSLKETRRCGSTCTFWPCFELCCPESFGPQQKFLVKLRVLGMKSQCHLSPISRSCTRNRRHVLYP
B3: CPT1A 381-469 W391A (Rattus norvegicus, UniProt P32198); Cy3 label; sequence looked up; chain AALTAADRVPAAKCRQTYFARGKNKQSLDAVEKAAFFVTLDESEQGYREEDPEASIDSYAKSLLHGRCFDRWFDKSITFVVFKNSKIGI
B4: LPHN3 OLF 199-495 A313S (Mus musculus, UniProt Q80TS3); sequence looked up; chain KVFLCPGLLKGVYQSEHLFESDHQSGAWCKDPLQASDKIYYMPWTPYRTDTLTEYSSKDDFIAGRPTTTYKLPHRVDGTGFVVYDGALFFNKERTRNIVKFDLRTRIKSGEAIISNANYHDTSPYRWGGKSDIDLAVDENGLWVIYATEQNNGKIVISQLNPYTLRIEGTWDTAYDKRSASNAFMICGILYVVKSVYEDDDNEATGNKIDYIYNTDQSKDSLVDVPFPNSYQYIAAVDYNPRDNLLYVWNNYHVVKYSLDFGPLDSRSGPVHHGQVSYISPPIHLDSELERPPVRGI
B5: Scn2a 989-1133 (UniProt P04775); CK2-phosphorylated; sequence looked up; chain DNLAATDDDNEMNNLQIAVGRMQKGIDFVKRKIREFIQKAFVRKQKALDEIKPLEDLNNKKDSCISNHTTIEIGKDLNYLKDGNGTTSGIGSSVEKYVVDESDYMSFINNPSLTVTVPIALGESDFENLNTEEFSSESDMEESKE

| Substance | tested on | assay | test system | setting | measurement | result |
| --- | --- | --- | --- | --- | --- | --- |
| B1 (NUP153 895-1475) | KPNB1 I178A/F217A/Y255A/I263R/L612D/F688A (Homo sapiens, UniProt Q14974) | ELISA | – | apparent | Kd | 83.2 ± 9.1 nM |
| PAKKSEELVAEAHNLSTLLENAIQDTVRAQDQSFTALDWSWLQTE (IKBKB 701-745 C716S/E729A (Homo sapiens, UniProt O14920); sequence looked up) | IKBKG 2-419 C11A/C76A/C95A/C131A/C167A | competition with labelled peptide, fluorescence polarisation | – | pH 7.4 | Kd | 4.9 nM |
| B2 (IGFL3 24-125) | IGFLR1 23-159 (Homo sapiens, UniProt Q9H665) | SPR | – | pH 7.4, 25 °C, NaCl 0.15 M | Kd | 0.085 nM |
| B3 (CPT1A 381-469 W391A) | Fabp1, Cy5 label (Mus musculus, UniProt P12710) | FRET | – | 24 °C | Kd | 3 nM |
| KELVALTPPSPFRD (Grm5) | Homer1a | ITC | peptide | – | Kd | 16400 ± 200 nM |
| fus1 fragment (Schizosaccharomyces pombe) (sequence not shown) | ACTA1 filaments (UniProt P68135) | co-sedimentation | – | – | Kd | 100 nM |
| B4 (LPHN3 OLF 199-495 A313S) | FLRT3 LRR domain 29-386, N-linked glycosylation (Mus musculus, UniProt Q8BGT1) | ITC | – | pH 7.0, 25 °C, NaCl 150 mM | Kd | 19 nM |
| tocilizumab IgG1, C-terminal lysine removed | FCGRT (Homo sapiens, UniProt P55899) | BLI, SPR | – | – | Kd | 25.8 nM and 25.9 nM and 25 nM and 26.4 nM and 28.6 nM and 14.6 nM |
| 5FAM-GCLVL (RHOA residues 189-193 (Homo sapiens); N-terminal 5-FAM; 5FAM = O=C1OC2(c3ccc(O)cc3Oc3cc(O)ccc32)c2ccc(C(=O)*)cc21) | RAP1GDS1 (Homo sapiens, UniProt P52306-1) | fluorescence polarization | peptide | – | Kd | 61000 ± 20000 nM |
| Insulin human | – | – | rat, olfactory bulb | intranasal, 20 µg per nostril, 60 min | brain concentration | 134 ± 54.4 pg/mg tissue |
| EPB41 fragment (Homo sapiens) | SLC9A1 residues 506-575 (Rattus norvegicus) | resonant mirror | – | kinetic analysis | Kd | 214 ± 17 nM |
| MGDSILSQAEIDALLN (fliM residues 1-16 (Escherichia coli)) | cheY 2-129 E89K (Escherichia coli, UniProt P0AE67) | fluorescence titration | peptide | pH 7.0, one-site model | Kd | 230000 nM |
| AATKQTARKSTGGKAPRK (Histone H3.1 2-19 R2A (Homo sapiens, UniProt P68431); sequence looked up) | KDM5A 291-347 (Homo sapiens, UniProt P29375) | fluorescence polarisation | peptide | – | Kd | 49000 nM |
| PPP1CB (Homo sapiens, UniProt P62140) | SHOC2 (Homo sapiens, UniProt Q9UQ13) | BLI | – | pH 7.5, 30 °C | Kd | 41800 nM |
| PAKKSEELVAEAHNLSTLLENAIQDTVREQDQSFAALDWSWLQTE (IKBKB 701-745 C716S/T735A (Homo sapiens, UniProt O14920); sequence looked up) | IKBKG 2-419 C11A/C76A/C95A/C131A/C167A | competition with labelled peptide, fluorescence polarisation | – | pH 7.4 | Kd | 13 nM |
| B5 (Scn2a 989-1133) | ANK2 1-957 (Homo sapiens, UniProt Q01484-2) | SPR | – | pH 7.4, 25 °C, NaCl 150 mM | Kd | 0.5 nM |
| {FITC}-PAKKSEELVAEAHNLSTLLENAIQDTVREQDQSFTALDWSWLQTE (IKKβ 701-745 C716S (UniProt O14920); FITC label; FITC = O=C1OC2(c3ccc(O)cc3Oc3cc(O)ccc32)c2ccc(NC(=S)*)cc21; sequence looked up) | IKBKG C11A/C76A/C95A/C131A/C167A (Homo sapiens, UniProt Q9Y6K9) | fluorescence polarisation | peptide | oxidised, together with: H2O2 5% | Kd | 260 nM |
| {FITC}-SARWRFPARPGTTGGGGGGGRRGLGGAPRQRVPALLLPPGY (KMT2A 4-43 C-A; N-terminal FITC; FITC = O=C1OC2(c3ccc(O)cc3Oc3cc(O)ccc32)c2ccc(NC(=S)*)cc21) | MEN1 T349M (Homo sapiens, UniProt O00255-1) | fluorescence polarisation | peptide | – | Kd | 2.99 nM |
| GGVK(Me3)KPLR-NH2 (H3 peptide residues 33-40 H39L; K36me3, C-terminal amide; Me3 = trimethyl (on lysine, Kme3)) | PHF1 25-87 (Homo sapiens, UniProt O43189-1) | ITC | peptide | pH 7.5, 25 °C, NaCl 150 mM | Kd | 18700 nM |
| KYLPYWPVLSSL (KYL peptide 12-mer) | EPHA4 29-209 (Homo sapiens, UniProt P54764) | ITC | peptide | – | Kd | 1300 nM |
| PAKKSEELVAEAHNLSTLLENAIQDTVREADQSFTALDWSWLQTE (IKBKB 701-745 C716S/Q730A (Homo sapiens, UniProt O14920); sequence looked up) | IKBKG 2-419 C11A/C76A/C95A/C131A/C167A | competition with labelled peptide, fluorescence polarisation | – | pH 7.4 | Kd | 3.9 nM |
| THBS1 fragment (Homo sapiens) | pad-2 40-424 R298K/R299K (Caenorhabditis elegans, UniProt Q8WR51) | ITC | – | 25 °C, together with: GDP | Kd | 1030 nM |
| GSLPPLDSEDLFQDLSHFQETWLAEAQVPDSDEQFVPDFHSE (ETV4 43-84 (Homo sapiens, UniProt P43268); sequence looked up) | MED25 ACID 391-553 (Homo sapiens, UniProt Q71SY5) | BLI | – | – | Kd | 700 nM |
| NHERF2 fragment (Homo sapiens) | Slc1a3 (Rattus norvegicus, UniProt P24942) | far-Western blot | – | saturation binding | Kd | 196 nM |
| UGT1A9 (Homo sapiens, UniProt O60656) | O=c1cc(-c2ccc(O)c(O)c2)oc2cc(O)cc(O)c12 | steady-state kinetics | – | pH 7.4, 37 °C | Vmax | 0.0007 µmol/min/mg |
